Assay results from different studies.
A part holds a random share of what one study measured. Substitutions count along the parent as printed.

Series 1
Target: CREB3L1, bZIP domain (human)
Technique: DHFR protein complementation
Matrix: yeast
Setting: single substitutions, most at no-binding floor
Baseline: wild-type JUN-FOS pair
Direction: higher = stronger binding
Starting sequence: JUN, bZIP domain (human); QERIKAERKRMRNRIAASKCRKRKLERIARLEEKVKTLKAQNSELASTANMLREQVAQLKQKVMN; partner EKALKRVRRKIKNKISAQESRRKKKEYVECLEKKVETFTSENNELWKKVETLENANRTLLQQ
Variant | binding fitness
A46Q | -1.3 natural log
L59W | -1.57 natural log
T37C | -1.14 natural log
Q41D | -1.5 natural log
T37A | -1.26 natural log
K39G | -1.4 natural log
L52E | -1.44 natural log
E44N | -1.36 natural log
A46D | -1.41 natural log
N42R | -1.34 natural log
R30H | -1.5 natural log
E32D | -1.52 natural log

Series 2
Substance: PhoQ, residues 284 288 289 292 302 303 AAQSYM
Technique: Sort-seq
Refers to: YFP reporter
Matrix: E. coli
Setting: PhoQ-PhoP variant library
Added: 10 µM Mg2+
Baseline: high Mg2+ state
Direction: higher = stronger signaling
target | fold induction
PhoP, residues 12 14 15 18 19 GMGLL (Escherichia coli, UniProt P23836) | 0.817
PhoP, residues 12 14 15 18 19 LFHKL (Escherichia coli, UniProt P23836) | 7.07
PhoP, residues 12 14 15 18 19 QQAYL (Escherichia coli, UniProt P23836) | 20.7

Series 3
Target: CCNA2, cyclin fold, Cln2 fusion (human)
Technique: yeast growth competition, sequencing
Matrix: yeast
Setting: strong parent motif
Baseline: not given
Direction: higher = stronger binding
Starting sequence: PKN2 docking peptide (human); VSAVQKLDFSDTM; partner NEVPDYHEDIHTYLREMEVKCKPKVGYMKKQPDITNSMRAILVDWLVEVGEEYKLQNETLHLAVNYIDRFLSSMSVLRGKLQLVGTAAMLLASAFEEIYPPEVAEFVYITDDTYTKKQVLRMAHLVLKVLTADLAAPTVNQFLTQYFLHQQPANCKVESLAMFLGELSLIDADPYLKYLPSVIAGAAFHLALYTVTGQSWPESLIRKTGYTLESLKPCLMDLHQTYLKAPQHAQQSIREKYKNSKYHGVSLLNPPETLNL
Variant | normalised enrichment score
VYAVQKLDFSDTM [S2Y] | 1.96
VSAVQKLDFIDTM [S10I] | 1.01
VSAVQKLDFSDQM [T12Q] | 1.34
VSAVQKLDFSDLM [T12L] | 2.4
VSAQQKLDFSDTM [V4Q] | 1.06
VCAVQKLDFSDTM [S2C] | 1.57
FSAVQKLDFSDTM [V1F] | 2.45
VSAVQKLDFSDGM [T12G] | 1.29
VHAVQKLDFSDTM [S2H] | 2.01
VSAVQKLDFWDTM [S10W] | 1.51
VSAVQKSDFSDTM [L7S] | -0.38

Series 4
Target: ABI1, truncated, D143A, DHFR fusion (Arabidopsis thaliana)
Technique: DHFR PCA, deep sequencing
Matrix: yeast
Setting: methotrexate growth selection, single substitutions
Added: (+)-ABA 0.032 µM
Baseline: wild-type fitted maximum
Direction: higher = stronger binding
Starting sequence: PYL1, truncated, DHFR fusion (Arabidopsis thaliana); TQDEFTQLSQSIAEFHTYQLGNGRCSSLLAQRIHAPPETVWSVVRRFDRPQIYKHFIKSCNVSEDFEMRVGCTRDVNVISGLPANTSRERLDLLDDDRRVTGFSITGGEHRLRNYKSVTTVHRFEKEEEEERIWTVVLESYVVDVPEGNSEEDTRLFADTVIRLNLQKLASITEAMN
Variant | relative binding score
P36S | 19.2%
H55R | 23.4%
T120R | -1.3%
L156D | -4.03%
L20F | 5.93%
T86E | 5.87%
P36F | 3.95%
L91M | 1.19%
A84P | 27.6%
E129L | 20.5%

Excerpt of the above (series 4):
Variant | relative binding score
T120R | -1.3%
A84P | 27.6%
P36S | 19.2%
L156D | -4.03%
L91M | 1.19%
T86E | 5.87%
